# Results from different studies.
# Numbered parts are unrelated; each lists some results of a single study.
# Sequence of UniProt Q9Y243 (whole entry, looked up): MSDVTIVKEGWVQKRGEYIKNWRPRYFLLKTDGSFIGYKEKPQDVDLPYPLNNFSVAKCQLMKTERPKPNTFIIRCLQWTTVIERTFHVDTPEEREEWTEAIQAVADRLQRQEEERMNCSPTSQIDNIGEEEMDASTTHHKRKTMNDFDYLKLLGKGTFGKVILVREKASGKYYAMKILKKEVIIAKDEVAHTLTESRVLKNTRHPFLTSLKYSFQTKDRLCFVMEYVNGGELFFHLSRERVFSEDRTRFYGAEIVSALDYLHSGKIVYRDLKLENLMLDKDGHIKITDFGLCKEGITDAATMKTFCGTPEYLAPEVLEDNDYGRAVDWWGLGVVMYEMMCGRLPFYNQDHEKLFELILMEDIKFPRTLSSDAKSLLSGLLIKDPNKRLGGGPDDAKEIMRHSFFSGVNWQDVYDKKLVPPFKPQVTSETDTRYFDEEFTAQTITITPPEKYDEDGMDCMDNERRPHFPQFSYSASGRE
# Sequence of UniProt P35626 (whole entry, looked up): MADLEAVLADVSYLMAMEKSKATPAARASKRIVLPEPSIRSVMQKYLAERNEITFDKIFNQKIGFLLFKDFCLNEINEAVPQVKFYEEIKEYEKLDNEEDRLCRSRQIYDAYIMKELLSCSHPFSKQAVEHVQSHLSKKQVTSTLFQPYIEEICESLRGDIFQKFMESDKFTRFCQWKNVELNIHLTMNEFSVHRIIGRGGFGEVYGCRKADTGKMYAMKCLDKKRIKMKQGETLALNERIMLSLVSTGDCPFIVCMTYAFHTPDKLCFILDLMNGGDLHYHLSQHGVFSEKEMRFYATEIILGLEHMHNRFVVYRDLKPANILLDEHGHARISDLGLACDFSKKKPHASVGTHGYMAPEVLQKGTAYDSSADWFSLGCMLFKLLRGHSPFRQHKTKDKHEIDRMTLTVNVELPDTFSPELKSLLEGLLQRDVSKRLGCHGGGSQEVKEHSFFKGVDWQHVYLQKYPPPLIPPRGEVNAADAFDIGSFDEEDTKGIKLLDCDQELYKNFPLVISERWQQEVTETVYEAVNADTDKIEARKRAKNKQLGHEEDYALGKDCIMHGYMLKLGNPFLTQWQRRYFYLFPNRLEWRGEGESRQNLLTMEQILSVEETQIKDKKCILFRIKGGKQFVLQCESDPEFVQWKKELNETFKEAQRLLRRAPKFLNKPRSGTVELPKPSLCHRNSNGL
# Sequence of UniProt P43250 (whole entry, looked up): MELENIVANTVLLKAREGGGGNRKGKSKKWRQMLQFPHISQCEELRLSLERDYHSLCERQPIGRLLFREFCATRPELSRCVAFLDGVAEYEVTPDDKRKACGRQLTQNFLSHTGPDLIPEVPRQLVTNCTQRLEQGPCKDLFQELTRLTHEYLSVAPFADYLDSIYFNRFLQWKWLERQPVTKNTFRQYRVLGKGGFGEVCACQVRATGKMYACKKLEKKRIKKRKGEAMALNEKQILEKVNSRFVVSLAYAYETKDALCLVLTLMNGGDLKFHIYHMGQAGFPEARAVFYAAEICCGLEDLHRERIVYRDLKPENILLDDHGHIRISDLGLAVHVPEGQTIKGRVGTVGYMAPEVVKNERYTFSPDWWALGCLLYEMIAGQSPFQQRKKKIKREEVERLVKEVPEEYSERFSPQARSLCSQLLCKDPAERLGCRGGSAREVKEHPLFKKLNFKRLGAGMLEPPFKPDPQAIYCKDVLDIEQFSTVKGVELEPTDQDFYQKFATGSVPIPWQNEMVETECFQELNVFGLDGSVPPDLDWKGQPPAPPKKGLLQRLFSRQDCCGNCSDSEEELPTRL
# Sequence of UniProt Q96BR1 (whole entry, looked up): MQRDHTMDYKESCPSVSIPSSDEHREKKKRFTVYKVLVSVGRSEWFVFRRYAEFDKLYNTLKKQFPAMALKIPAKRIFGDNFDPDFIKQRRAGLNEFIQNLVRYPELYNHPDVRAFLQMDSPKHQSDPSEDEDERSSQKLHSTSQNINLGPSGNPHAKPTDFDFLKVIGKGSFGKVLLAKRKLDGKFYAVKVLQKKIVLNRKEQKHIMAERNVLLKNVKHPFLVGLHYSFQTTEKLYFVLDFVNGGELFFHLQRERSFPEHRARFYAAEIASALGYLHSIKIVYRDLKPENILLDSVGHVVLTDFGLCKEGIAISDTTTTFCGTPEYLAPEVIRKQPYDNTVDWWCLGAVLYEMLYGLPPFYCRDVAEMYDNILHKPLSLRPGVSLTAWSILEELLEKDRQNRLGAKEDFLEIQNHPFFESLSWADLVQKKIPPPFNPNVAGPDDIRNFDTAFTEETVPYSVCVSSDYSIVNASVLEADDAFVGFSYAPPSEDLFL
# Sequence of UniProt Q9P1W9 (whole entry, looked up): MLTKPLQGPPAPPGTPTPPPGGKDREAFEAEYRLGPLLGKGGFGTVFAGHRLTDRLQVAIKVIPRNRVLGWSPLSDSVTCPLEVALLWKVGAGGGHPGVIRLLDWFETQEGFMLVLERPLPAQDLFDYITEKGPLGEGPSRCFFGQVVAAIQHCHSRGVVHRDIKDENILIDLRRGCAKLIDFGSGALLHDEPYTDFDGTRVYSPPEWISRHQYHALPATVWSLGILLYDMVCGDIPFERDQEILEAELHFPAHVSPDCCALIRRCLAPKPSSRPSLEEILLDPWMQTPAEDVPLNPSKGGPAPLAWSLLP
# Sequence of UniProt Q9NQU5 (whole entry, looked up): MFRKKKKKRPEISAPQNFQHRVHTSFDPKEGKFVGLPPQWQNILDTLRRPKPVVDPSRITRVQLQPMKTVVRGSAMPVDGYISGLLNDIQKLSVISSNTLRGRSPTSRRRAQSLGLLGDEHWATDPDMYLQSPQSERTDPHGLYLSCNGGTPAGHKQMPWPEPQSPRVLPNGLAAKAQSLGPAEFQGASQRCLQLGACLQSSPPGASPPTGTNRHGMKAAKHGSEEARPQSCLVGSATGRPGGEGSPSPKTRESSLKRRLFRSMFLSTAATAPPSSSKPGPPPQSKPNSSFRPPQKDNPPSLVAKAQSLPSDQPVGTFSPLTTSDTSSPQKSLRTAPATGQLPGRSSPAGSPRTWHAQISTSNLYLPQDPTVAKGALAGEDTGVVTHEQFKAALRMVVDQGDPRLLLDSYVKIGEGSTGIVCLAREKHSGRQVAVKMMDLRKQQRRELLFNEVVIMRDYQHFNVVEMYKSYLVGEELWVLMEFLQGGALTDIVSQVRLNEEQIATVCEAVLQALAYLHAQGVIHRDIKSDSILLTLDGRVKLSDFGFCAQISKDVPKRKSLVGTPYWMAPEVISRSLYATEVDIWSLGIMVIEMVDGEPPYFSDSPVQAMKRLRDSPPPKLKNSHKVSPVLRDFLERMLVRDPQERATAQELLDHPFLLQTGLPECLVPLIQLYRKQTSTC
# Sequence of UniProt P78362 (whole entry, looked up): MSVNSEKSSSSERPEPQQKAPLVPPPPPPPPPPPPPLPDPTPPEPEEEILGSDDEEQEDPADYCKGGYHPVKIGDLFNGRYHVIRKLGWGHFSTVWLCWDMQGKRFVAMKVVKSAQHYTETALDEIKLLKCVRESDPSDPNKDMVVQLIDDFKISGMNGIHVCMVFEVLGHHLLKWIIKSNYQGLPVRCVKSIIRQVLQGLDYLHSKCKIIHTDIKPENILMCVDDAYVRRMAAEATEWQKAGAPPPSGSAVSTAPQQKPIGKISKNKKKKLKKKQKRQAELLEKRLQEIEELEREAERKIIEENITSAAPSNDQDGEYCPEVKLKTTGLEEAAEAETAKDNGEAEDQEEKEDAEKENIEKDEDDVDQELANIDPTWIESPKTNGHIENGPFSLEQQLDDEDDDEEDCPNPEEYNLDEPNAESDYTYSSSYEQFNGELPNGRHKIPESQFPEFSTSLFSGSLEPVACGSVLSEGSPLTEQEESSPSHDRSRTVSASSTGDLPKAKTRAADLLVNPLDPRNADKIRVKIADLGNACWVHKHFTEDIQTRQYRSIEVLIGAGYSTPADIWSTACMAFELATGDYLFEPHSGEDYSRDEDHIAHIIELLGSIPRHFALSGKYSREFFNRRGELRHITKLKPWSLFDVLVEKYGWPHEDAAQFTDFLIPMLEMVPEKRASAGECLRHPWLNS
# Sequence of UniProt P49336 (whole entry, looked up): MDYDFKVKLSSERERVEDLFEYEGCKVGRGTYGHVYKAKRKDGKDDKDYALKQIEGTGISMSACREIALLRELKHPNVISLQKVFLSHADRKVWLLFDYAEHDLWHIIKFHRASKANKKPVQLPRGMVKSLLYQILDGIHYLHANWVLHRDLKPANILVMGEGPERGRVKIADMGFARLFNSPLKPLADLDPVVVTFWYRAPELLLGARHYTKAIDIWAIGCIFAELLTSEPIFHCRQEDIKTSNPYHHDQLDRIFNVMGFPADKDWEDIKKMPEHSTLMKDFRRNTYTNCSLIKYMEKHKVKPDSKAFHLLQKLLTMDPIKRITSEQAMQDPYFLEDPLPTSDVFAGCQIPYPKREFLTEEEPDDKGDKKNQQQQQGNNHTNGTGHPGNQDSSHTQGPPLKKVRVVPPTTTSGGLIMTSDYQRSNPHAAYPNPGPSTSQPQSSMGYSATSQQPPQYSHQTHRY

# Set 1
# Structure (SMILES): O=C(Nc1cnn(-c2csc(C(=O)NC3COC3)c2)c1)Nc1ccccc1Cl
# Effect on: enzyme activity
# Concentration: 5 µM
# Reference: untreated control
target,remaining activity [%]
"cAMP-dependent protein kinase catalytic subunit beta (PRKACB, Homo sapiens, UniProt P22694)",97.7
"G protein-coupled receptor kinase 6 (GRK6, Homo sapiens, UniProt P43250)",97.8
"Serine/threonine-protein kinase Sgk3 (SGK3, Homo sapiens, UniProt Q96BR1)",86.5
"Serine/threonine-protein kinase Nek8 (NEK8, Homo sapiens, UniProt Q86SG6)",107
"SRSF protein kinase 2 (SRPK2, Homo sapiens, UniProt P78362)",95

# Set 2
# Target: Beta-1 adrenergic receptor (ADRB1, Homo sapiens, UniProt P08588)
# Sequence of UniProt P08588 (whole entry, looked up): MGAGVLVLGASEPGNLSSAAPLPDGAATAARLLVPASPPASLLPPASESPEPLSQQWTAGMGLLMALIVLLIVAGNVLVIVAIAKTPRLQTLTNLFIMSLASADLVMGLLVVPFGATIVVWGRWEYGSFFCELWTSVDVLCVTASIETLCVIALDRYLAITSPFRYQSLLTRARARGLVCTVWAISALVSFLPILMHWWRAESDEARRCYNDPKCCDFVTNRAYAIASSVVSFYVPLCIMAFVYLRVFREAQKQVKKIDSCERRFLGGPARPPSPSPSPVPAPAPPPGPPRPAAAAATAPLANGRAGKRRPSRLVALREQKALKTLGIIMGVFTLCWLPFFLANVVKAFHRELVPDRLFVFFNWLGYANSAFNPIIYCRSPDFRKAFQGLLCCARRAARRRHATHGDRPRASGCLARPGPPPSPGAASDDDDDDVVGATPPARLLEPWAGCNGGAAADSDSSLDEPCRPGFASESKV
# Mode: agonist
SMILES,EC50
O=C(O)Cn1cc(-c2cccc(-c3nn4c(=O)cc(N5CCNCC5)nc4s3)c2)cn1,7.94 µM
CN(C)c1ccc(C(=C2C=CC(=[N+](C)C)C=C2)c2c(O)c(S(=O)(=O)[O-])cc3cc(S(=O)(=O)O)ccc23)cc1,35.5 µM
O=C1Nc2ccc(I)cc2/C1=C/c1cc(Br)c(O)c(Br)c1,≥ 100 µM
N#Cc1cc2c(nc1N1CCCC(COc3ncccc3C(F)(F)F)C1)CCOC2 (stereo not drawn),≥ 100 µM
O=C1NCCCc2[nH]c(-c3cnn(-c4cccc(F)c4)c3)nc21,≥ 100 µM
Cc1nc(N)ncc1-c1nc(N2CCOCC2)c2sc(C(C)(C)O)cc2n1,≥ 100 µM
O=C1COc2ccc(-c3ccsc3)nc2CN1,≥ 100 µM

# Set 3
# Target: Rhodopsin kinase GRK7 (GRK7, Homo sapiens, UniProt Q8WTQ7)
# Effect on: enzyme activity
# Mode: inhibitor
# Concentration: 0.5 µM
# Reference: control
# Residues (Q8WTQ7 1-553): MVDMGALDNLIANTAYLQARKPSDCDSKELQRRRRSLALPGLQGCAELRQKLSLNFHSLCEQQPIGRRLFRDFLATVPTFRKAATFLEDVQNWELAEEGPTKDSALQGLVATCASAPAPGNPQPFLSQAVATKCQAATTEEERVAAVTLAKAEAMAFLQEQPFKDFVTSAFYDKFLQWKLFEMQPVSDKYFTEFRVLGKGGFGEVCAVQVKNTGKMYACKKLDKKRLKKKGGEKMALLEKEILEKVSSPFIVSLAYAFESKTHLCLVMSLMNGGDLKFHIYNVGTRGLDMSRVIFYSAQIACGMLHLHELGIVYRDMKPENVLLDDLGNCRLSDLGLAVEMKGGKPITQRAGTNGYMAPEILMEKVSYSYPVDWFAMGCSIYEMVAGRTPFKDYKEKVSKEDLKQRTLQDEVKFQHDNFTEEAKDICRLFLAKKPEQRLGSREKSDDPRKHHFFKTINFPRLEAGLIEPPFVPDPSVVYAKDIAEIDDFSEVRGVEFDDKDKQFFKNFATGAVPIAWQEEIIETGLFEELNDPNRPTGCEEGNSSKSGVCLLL
SMILES,remaining activity
Nc1ncnc2n[nH]c(Nc3ccc(F)cc3)c12,105%
OCC(O)CCON=C1C(c2c(O)[nH]c3ccccc23)=Nc2ccccc21 (stereo not drawn),70.3%
COc1cc2nccc(Oc3ccc(NC(=S)NC(=O)c4ccccc4C)cc3)c2cc1OC,95.6%
Nc1ccc2ncnc(NCCc3ccc(Oc4ccccc4)cc3)c2c1,104%
COc1cc2ncnc(Nc3ccc(F)c(Cl)c3)c2cc1OCCCN1CCOCC1,96.2%
COc1ccc(CNC(=O)Nc2ncc([N+](=O)[O-])s2)cc1,103%
Cn1sc(=O)n(Cc2ccccc2)c1=O,112%
O=S(=O)(c1cccc2cnccc12)N1CCCNCC1,114%
O=C(CCCc1ccc(-c2ccccc2F)cc1)Nc1ccc(O)cc1,109%
CN(C)c1ccc(C=C2C(=O)Nc3ccccc32)cc1,100%
COc1ccc(OC)c2c(=S)c3ccccc3[nH]c12,102%
O=C1NC(=O)C(c2cn(CCCO)c3ncccc23)=C1c1cnccn1,118%
Oc1ccc(-c2nc(-c3ccncc3)c(-c3ccc(F)cc3)[nH]2)cc1,105%
CO[C@H]1C[C@@H]2CC[C@@H](C)[C@@](O)(O2)C(=O)C(=O)N2CCCC[C@H]2C(=O)O[C@H]([C@H](C)C[C@@H]2CC[C@@H](O)[C@H](OC)C2)CC(=O)[C@H](C)/C=C(\C)[C@@H](O)[C@@H](OC)C(=O)[C@H](C)C[C@H](C)/C=C/C=C/C=C/1C,98%
CCOC(=O)c1c(C)[nH]c(/C=C2\C(=O)Nc3ccccc32)c1C,86.3%

# Set 4
# Structure (SMILES): CC(=O)Nc1c(C(C)=O)c(=O)n(C)c2nc(-c3ccc(Cl)cc3Cl)c(-c3ccc(Cl)cc3)cc12
# Effect on: cell-free assay
# Method: competition with immobilised ligand
# Concentration: 1 µM
target,remaining binding [%]
"G protein-coupled receptor kinase 3 (GRK3, Homo sapiens, UniProt P35626)",99
"Serine/threonine-protein kinase PAK 6 (PAK6, Homo sapiens, UniProt Q9NQU5)",100
"RAC-gamma serine/threonine-protein kinase (AKT3, Homo sapiens, UniProt Q9Y243)",100
"Serine/threonine-protein kinase pim-2 (PIM2, Homo sapiens, UniProt Q9P1W9)",100
"Cyclin-dependent kinase 8 (CDK8, Homo sapiens, UniProt P49336)",100
"Rhodopsin kinase GRK7 (GRK7, Homo sapiens, UniProt Q8WTQ7)",100

# Repeated from above (set 3):
SMILES,remaining activity
Cn1sc(=O)n(Cc2ccccc2)c1=O,112%
COc1cc2ncnc(Nc3ccc(F)c(Cl)c3)c2cc1OCCCN1CCOCC1,96.2%
O=C(CCCc1ccc(-c2ccccc2F)cc1)Nc1ccc(O)cc1,109%
